Measurements from different studies.
± gives the spread as reported.

Protein sequences, listed by entry. Tags and fused reporters are not part of them.
UniProt Q9UIF9, whole entry: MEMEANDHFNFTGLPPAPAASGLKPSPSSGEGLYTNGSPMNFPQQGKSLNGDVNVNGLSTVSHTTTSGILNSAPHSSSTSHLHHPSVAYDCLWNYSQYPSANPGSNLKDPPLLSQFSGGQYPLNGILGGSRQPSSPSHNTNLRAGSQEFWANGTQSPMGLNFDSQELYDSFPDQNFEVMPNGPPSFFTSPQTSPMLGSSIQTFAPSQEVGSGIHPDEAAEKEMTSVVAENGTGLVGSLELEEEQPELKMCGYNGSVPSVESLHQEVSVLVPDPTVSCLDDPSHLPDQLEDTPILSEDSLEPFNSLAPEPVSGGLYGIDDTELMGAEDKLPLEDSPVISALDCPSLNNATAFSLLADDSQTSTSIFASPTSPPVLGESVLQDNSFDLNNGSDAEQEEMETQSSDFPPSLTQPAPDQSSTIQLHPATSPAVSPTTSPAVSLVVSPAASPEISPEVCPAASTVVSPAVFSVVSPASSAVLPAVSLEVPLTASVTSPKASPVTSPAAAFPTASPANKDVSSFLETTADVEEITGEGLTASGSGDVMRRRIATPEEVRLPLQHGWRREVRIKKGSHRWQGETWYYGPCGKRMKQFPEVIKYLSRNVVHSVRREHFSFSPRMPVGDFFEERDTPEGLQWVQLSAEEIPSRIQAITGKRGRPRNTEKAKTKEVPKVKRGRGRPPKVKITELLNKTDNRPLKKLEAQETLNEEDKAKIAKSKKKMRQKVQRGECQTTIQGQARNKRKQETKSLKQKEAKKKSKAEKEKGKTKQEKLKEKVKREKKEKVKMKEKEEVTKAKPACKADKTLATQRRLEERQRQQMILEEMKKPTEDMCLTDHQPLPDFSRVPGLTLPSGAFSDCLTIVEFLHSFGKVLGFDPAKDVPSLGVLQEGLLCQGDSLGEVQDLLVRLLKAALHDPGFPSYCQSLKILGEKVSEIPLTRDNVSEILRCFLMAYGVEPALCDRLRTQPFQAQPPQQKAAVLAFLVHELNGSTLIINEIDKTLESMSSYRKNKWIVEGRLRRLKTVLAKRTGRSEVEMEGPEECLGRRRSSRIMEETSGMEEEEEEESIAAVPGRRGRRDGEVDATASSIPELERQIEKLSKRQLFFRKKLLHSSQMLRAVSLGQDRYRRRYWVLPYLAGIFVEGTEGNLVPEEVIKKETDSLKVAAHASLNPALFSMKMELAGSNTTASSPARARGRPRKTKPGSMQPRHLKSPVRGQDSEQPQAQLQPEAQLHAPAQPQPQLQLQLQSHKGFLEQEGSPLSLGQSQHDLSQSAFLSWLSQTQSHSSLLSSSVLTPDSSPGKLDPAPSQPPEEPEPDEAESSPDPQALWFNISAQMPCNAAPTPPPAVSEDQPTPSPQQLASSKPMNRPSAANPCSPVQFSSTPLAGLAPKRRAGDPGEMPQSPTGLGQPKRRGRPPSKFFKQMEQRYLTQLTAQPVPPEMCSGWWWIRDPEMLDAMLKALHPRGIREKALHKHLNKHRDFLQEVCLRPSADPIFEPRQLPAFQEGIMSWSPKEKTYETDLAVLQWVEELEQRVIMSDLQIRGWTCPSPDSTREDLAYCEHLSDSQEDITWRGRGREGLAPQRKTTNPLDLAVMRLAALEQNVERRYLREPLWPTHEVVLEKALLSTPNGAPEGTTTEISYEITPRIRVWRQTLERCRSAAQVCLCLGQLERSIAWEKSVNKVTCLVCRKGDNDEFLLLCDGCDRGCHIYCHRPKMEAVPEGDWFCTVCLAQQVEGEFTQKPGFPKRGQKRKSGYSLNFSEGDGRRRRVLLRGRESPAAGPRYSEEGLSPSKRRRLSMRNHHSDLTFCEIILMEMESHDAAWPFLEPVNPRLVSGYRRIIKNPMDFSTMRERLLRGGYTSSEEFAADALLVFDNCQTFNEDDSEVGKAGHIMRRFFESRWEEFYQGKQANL
UniProt P10636, whole entry, looked up: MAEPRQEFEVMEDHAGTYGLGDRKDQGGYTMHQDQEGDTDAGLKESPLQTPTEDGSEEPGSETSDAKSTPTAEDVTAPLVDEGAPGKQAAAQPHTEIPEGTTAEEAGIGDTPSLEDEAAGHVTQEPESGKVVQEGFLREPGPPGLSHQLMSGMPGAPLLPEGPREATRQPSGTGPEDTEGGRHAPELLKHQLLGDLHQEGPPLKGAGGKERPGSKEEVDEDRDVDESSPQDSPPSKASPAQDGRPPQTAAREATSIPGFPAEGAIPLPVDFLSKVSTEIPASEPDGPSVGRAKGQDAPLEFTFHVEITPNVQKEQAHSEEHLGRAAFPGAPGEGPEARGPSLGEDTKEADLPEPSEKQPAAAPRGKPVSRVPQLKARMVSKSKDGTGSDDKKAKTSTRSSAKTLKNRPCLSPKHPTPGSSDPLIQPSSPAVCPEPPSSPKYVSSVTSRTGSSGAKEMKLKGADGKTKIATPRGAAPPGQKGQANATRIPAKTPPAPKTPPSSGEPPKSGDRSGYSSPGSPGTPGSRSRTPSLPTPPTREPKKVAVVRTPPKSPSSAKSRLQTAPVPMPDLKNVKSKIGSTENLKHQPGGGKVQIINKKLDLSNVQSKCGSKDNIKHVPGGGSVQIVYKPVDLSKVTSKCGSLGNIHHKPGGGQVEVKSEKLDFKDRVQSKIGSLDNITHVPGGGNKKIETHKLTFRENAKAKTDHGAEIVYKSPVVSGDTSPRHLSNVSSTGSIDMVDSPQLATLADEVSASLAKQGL
UniProt Q9NRW4, whole entry: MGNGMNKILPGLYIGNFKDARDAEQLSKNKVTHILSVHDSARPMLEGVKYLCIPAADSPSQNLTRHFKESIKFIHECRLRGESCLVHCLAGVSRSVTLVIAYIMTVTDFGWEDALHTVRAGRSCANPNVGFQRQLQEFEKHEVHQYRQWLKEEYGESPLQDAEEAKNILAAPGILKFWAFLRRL

Compound | tested on | assay | system | setting | how to read | endpoint | result
O=C(/C=C/c1nc2ccccc2[nH]1)c1c(-c2ccccc2)c2cc(Cl)ccc2[nH]c1=O | SK-MEL-28 | cell viability, CellTiter-Blue |  | 72 h |  | EC50 | 11600 nM
CC1C=CCCCOC(=O)c2c(O)cc(O)c(Cl)c2CC(=NOCC(=O)N2CCCCC2)C=CC1 (stereo not drawn) | SK-BR-3 | Her-2 depletion, measured: Her-2 |  | overnight |  | EC50 | > 10000 nM
CCN1CCN(Cc2ccc(Nc3ncc4c(n3)N(C)c3c(C)cccc3C(=O)N4C)cc2C(F)(F)F)CC1 | HeLa S3 | cell growth, CellTiter-Glo |  | 96 h |  | EC50 | > 10000 nM
O=C(Nc1cccnn1)N1CC(Oc2ccc(-c3ccccc3F)cn2)C1 |  |  | healthy humans | oral, 5 to 300 mg single, 50 to 500 mg repeated |  | tolerability | not toxic
Clc1ccc2[nH]c(CNc3nc(N4CCNCC4)nc4c3ncn4-c3ccoc3)nc2c1 | A-375 | cell viability, MTT |  |  |  | EC50 | 2 nM
CC1CCCN(C(=O)CON=C2C=CCCC=CCCOC(=O)c3c(O)cc(O)cc3C2)C1 (stereo not drawn) | SK-BR-3 | Her-2 depletion, measured: Her-2 |  | overnight |  | EC50 | ≤ 100 nM
Cc1c(O)cc2c(c1C)O[C@](C)(CCCC(C)C)CC2 | PHLPP1 | Western blot | LNCaP, non-raft membrane fractions | concentration not given, 24 h, serum-free medium | relative to: DMSO vehicle, PDK1-normalised | membrane PHLPP1 level | > 2.5 fold
CCCC1C/C=C/CCCCC(=NOCC(=O)N2CCCCC2)Cc2c(Cl)c(O)cc(O)c2C(=O)O1 (stereo not drawn) | SK-BR-3 | Her-2 depletion, measured: Her-2 |  | overnight |  | EC50 | ≤ 5000 nM
CN1C(=O)c2ccccc2N(C)c2nc(Nc3ccc(N4CCC(O)CC4)cc3)ncc21 | HCT-116 | cell growth, CellTiter-Glo |  | 96 h |  | EC50 | 9.5 nM
CC[C@@H]1C(=O)N(C)c2cnc(Nc3ccc(C(=O)NC4CCN(C)CC4)cc3OC)nc2N1C1CCCC1 | BAZ2A (Homo sapiens, UniProt Q9UIF9) |  |  | 10 µM |  | delta Tm | 0.12 ± 0.22 °C
COc1ccc2[nH]c(CNc3nc(N4CCN(C)CC4)nc4c3ncn4-c3ccoc3)nc2c1 | A-375 | cell viability, MTT |  |  |  | EC50 | 89 nM
Fc1cc(-c2ccc3c(n2)[nH]c2ccncc23)ccn1 [isotope labelled] | Microtubule-associated protein tau, paired helical filaments (MAPT, Homo sapiens, UniProt P10636) | radioligand binding | PHF tau brain homogenate | 3.53 nM | higher = more binding | specific binding | 3.73 a.u.
CCN1CCN(Cc2ccc(Nc3ncc4c(n3)N(C)c3c(F)cccc3C(=O)N4C)cc2C(F)(F)F)CC1 | HCT-116 | cell growth, CellTiter-Glo |  | 96 h |  | EC50 | 449 nM
COc1cc(CC(=O)NCC(NC(=O)C(CCCNC(=O)c2cccc(I)c2)NC(=O)C(Cc2ccc(C(F)(F)P(=O)(O)O)cc2)NC(=O)c2ccc(C)c(Br)c2)C(N)=O)ccc1O (stereo not drawn) | DUSP22 (Homo sapiens, UniProt Q9NRW4) | enzyme activity |  | 10 µM |  | inhibition | no inhibition
O=C1CCC(N2C(=O)c3cccc(NCCOCCOCCOCCN4CCN(c5ccc(-c6ccc7c(c6)C(=O)N(C(C(=O)Nc6nccs6)c6ccccc6)C7)cn5)CC4)c3C2=O)C(=O)N1 (stereo not drawn) | Ba/F3 EGFR L858R/T790M | cell proliferation |  |  |  | EC50 | 96 nM

Some of these lines once more:
Compound | tested on | assay | system | setting | how to read | endpoint | result
CCCC1C/C=C/CCCCC(=NOCC(=O)N2CCCCC2)Cc2c(Cl)c(O)cc(O)c2C(=O)O1 (stereo not drawn) | SK-BR-3 | Her-2 depletion, measured: Her-2 |  | overnight |  | EC50 | ≤ 5000 nM
CN1C(=O)c2ccccc2N(C)c2nc(Nc3ccc(N4CCC(O)CC4)cc3)ncc21 | HCT-116 | cell growth, CellTiter-Glo |  | 96 h |  | EC50 | 9.5 nM
